Published values of several laboratories.
Each line is one published result; not all experiments were run side by side. ± gives the spread as reported.
Organism: Plasmodium falciparum

With `O=C1C(O)=C([C@H]2CC[C@H](c3ccc(Cl)cc3)CC2)C(=O)c2ccccc21` the EC50 was 18 µM (TM90-C2B).
The EC50 of `CCn1cc(-c2nc(C)no2)c(=O)c2cc(F)c(N3CCC(C)CC3)cc21` is reported as 0.56 µM (male gamete exflagellation, dual gamete formation; NF54).
With `COc1cccc(OC)c1C=CC(=O)C=Cc1c(OC)cccc1OC` the EC50 was 21 to 100 µM (parasite growth).
`Cc1cn([C@@H]2C[C@H](O)[C@@H](CNC(=S)Nc3ccc(Cl)c(C(F)(F)F)c3)O2)c(=O)[nH]c1=O` gave an EC50 of roughly 2 µM (parasite growth, SYBR Green; 3D7; 48 h, blood stage).
For `Cc1ccccc1-n1nnnc1C(C1CC1)N(Cc1cccc(C(F)(F)F)c1)C1CC1` (stereo not shown), the EC50 was 4.2 µM (parasite growth, SYBR Green; Dd2; 72 h).
`COC(=O)c1[nH]c(C(=O)OC)c(-c2c[nH]c3ccc(Cl)cc23)c1-c1c[nH]c2ccc(Cl)cc12` gave an EC50 of greater than 10 µM (parasite growth, SYBR Green; 3D7; 72 h, blood stage).
`CC1CCN(Cc2cc(/C=C/C(=O)c3ccc(Cl)cc3)ccc2O)CC1` has an EC50 of 17.04 ± 0.02 µM (parasite growth, pLDH; 3D7, chloroquine-sensitive; 72 h).
With `COc1ccc(C(F)(F)F)cc1CN(C)C(c1cccnc1)c1nnnn1-c1ccccc1C` (stereo not shown) the EC50 was 2.3 ± 0.4 µM (parasite growth, SYBR Green; Dd2; 72 h).
The EC50 of `O=C(/C=C/c1ccc(CN2CCCCC2)c(O)c1)c1ccc(Br)cc1` is reported as 0.15 µM (parasite growth; 3D7; 72 h, blood stage).
The EC50 of `Cc1cc(Nc2ccc(C(F)(F)F)nc2)n2nc(C(C)(F)F)nc2n1` is reported as 0.028 ± 0.02 µM (parasite growth; laboratory strain panel; 72 h, mean over panel).
With `O=C(/C=C/c1cccc(O)c1)c1ccc(F)cc1` the EC50 was 26.07 ± 0.03 µM (parasite growth, pLDH; 3D7, chloroquine-sensitive; 72 h).
The EC50 of `Cc1ncccc1C(c1nnnn1C1CC1)N(C1CC1)C1(c2cccc(C(F)(F)F)c2)CC1` (stereo not shown) is reported as 21 µM (parasite growth, SYBR Green; Dd2; 72 h).
`O=C(/C=C/c1cccc(O)c1)c1ccc(Cl)cc1` has an EC50 of greater than 38.7 µM (parasite growth; 3D7; 72 h, blood stage).
`COc1ccc(NC(=O)NC[C@H]2O[C@H](n3cc(C)c(=O)[nH]c3=O)C[C@@H]2O)cc1` has an EC50 of roughly 2 µM (parasite growth, SYBR Green; 3D7; 48 h, blood stage).
For `CCN(CC)CCCC(C)Nc1ccnc2cc(Cl)ccc12` (stereo not shown), the EC50 was 0.0018 µM (parasite growth; 3D7; 72 h, blood stage).
With `Cc1cc(Nc2ccc(S(F)(F)(F)(F)F)cc2)n2nc(C(C)(F)F)nc2n1` the EC50 was 5.7 ng/mL (liver-stage schizont size; human hepatocytes, NF54; 10% FCS).
